{"data": "Assay results gathered from unrelated publications", "note": "Each numbered part is a random draw from the data of one study; scales do not carry over between parts. Changes are numbered by the printed parent chain."}
{"data": "Series 1", "target": "NFE2L2, bZIP domain (human)", "method": "DHFR protein complementation", "sample": "yeast", "setting": "single substitutions, most at no-binding floor", "relative to": "wild-type JUN-FOS pair", "reading": "higher = stronger binding", "starting sequence": "JUN, bZIP domain (human); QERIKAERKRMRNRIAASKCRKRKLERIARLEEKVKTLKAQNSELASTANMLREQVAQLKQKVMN; partner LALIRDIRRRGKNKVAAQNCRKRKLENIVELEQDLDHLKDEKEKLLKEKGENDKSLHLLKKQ"}
{"Substitution": "A46R", "binding fitness": "-1.26 natural log"}
{"Substitution": "V35K", "binding fitness": "-1.35 natural log"}
{"Substitution": "M51A", "binding fitness": "-1.37 natural log"}
{"Substitution": "K39T", "binding fitness": "-1.41 natural log"}
{"Substitution": "A57T", "binding fitness": "-1.48 natural log"}
{"Substitution": "E32W", "binding fitness": "-1.5 natural log"}
{"Substitution": "A46M", "binding fitness": "-1.36 natural log"}
{"Substitution": "L38G", "binding fitness": "-1.47 natural log"}
{"Substitution": "A40D", "binding fitness": "-1.41 natural log"}
{"Substitution": "Q58P", "binding fitness": "-1.58 natural log"}
{"Substitution": "A57G", "binding fitness": "-1.52 natural log"}
{"Substitution": "K36N", "binding fitness": "-1.65 natural log"}
{"Substitution": "K34H", "binding fitness": "-1.03 natural log"}
{"Substitution": "I28V", "binding fitness": "-1.52 natural log"}
{"data": "Series 2", "target": "RING finger protein unkempt homolog, zinc fingers 1-6, GST-SBP tag (UNK, Homo sapiens, UniProt Q9C0B0, residues 30-357)", "method": "RNA Bind-n-Seq", "form": "RNA", "sample": "in vitro", "tested at": "not given", "setting": "RNA with constant flanks, human and mouse sites, ends assumed", "relative to": "input RNA pool", "reading": "higher = stronger binding", "Construct (chain)": "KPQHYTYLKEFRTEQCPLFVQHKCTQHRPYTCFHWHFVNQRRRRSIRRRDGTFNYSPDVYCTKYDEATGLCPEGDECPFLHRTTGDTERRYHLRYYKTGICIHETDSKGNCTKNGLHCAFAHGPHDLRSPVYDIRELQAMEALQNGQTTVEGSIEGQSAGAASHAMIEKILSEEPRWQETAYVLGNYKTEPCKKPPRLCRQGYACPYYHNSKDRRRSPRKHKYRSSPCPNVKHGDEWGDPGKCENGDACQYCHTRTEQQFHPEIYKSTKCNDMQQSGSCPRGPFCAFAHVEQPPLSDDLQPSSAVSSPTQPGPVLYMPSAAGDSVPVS"}
{"Sequence": "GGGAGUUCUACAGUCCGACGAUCAAUGUGGCAUUCAUGAGCUACUUUUUACAGGGCAAGGUUGAUGCCUGCCUAGAGCUCUUAAUUAGAACUGGACGGCUGCCAGAAGCUGCCUUCUUGGCCCGAACUUACUUACCCAGUCAGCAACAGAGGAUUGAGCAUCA", "bound/input enrichment [ratio]": 0.353}
{"Sequence": "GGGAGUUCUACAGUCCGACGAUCUCUCCCCCACCUCCUCCUCCUCCAGAAGAUUACGAAGAGGAGGAAGCUGCUGUGGUUGAGUAUAGUGAUCCUUAUGCUGAAGAGGACCCACCGUGGGCUCCACGUUCUUACUUGGAAAAGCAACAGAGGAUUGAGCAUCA", "bound/input enrichment [ratio]": 0.0945}
{"Sequence": "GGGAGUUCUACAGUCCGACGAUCACUUCUUUGAAAAGUCCCAUCAAACAAAUAGCAUGGGAGCAAAAACAGAGGGGCUUUAUUUUAGAUAUGUCUAAUUUUAAGCCUGAAAAGGUAAAACAAAGGUCAUUGUCAGAAGCAAUUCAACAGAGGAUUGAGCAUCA", "bound/input enrichment [ratio]": 0.225}
{"Sequence": "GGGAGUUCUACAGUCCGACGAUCAGGGAUCAGUUUGGAUCAAGCCACUCAUUGCCUGAAGUUCAGCAACACAUGAGGGAAGAAUCACGGACUCGAGGCUAUGACCGUGACAUAGCAUUCAUCAUGGAUGACUUCCAACAUGCCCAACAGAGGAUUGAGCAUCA", "bound/input enrichment [ratio]": 0.06}
{"Sequence": "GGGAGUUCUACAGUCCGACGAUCAAAGCUUUAAAAAUGCCUCUGCCUUGCCUGCAAUACAUGCAAUGUGUGUUAACUGAGUCUGUUCUCAGAAUCUGUUGGUAGUUAUUUCUGUGUUUUCCCUUUUUUUAAAGAAAUGUAUUUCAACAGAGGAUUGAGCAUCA", "bound/input enrichment [ratio]": 0.464}
{"Sequence": "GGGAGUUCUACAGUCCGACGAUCAUGAACUUGAGGUUCCUUGAAUUUGCGAGGUGUGGAAAGACUACUUGACUGUCUGUCCAGCUUAGCUGUUAUGUUUUUUGGGGGGGAGGGGUGAUGUGUUAAGAGUGAGUGGUACACUGGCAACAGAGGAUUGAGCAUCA", "bound/input enrichment [ratio]": 0.599}
{"Sequence": "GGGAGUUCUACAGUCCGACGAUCUUGAGCAUACAUAUACAAUGUGUUUCAAAUGCUGCUUGUAAAAUUAAACCAUCAUCUAGAAUAGAGUUAAUUUAUUAUAAUCAAGCUACAAAUAGGUUUUCUUAAACCAGAGAUGCACUGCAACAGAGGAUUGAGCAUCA", "bound/input enrichment [ratio]": 4.41}
{"Sequence": "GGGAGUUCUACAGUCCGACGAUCGAGUCUGGGUUCAGGGAGCCCGUGCUGGAUGCCAAGUCGGAGGUCACGGGCCAGCUUAUAGAUUUUCAGUGGAAACUGGGCAUGGCUGUGAGCUCUGACAGCUGCAGAUCUCUCAAGUAUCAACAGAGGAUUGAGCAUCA", "bound/input enrichment [ratio]": 0.115}
{"Sequence": "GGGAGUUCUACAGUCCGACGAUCACUGCGUUUCAAGCGGCGUCUGCUCUGGGGGCAGAGUUUGCGUCAGAGGCAUGCAGAGAGUUGGGUUUCUCCAGCAACUUGCUCUGCAGCUCUUGCGAUCUUCUUGGACAGUUUAAUCUGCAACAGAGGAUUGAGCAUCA", "bound/input enrichment [ratio]": 0.0994}
{"Sequence": "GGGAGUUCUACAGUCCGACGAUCUCUUGUUCAUCCCCUUGUAUUGUUUCUCCUUAUUGCUACAGUUAAUAGACAAAAAGGUAACUUAGACCCUUUUUUUUUUUUGGUUUGGCUUGAUAUUGUUUAGUAAAUGGCUAUACAAGUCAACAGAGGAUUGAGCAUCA", "bound/input enrichment [ratio]": 10.9}
{"Sequence": "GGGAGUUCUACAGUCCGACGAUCGAACUUCAAGCUUCACAGAUAUUACAGAACAAGAAACAUAAAAAUUCUCAAUUAGAUAAAAAUAGUGAAGUUUAUCAGGAAGUUCAAGCUAUGUUUGAUACACUUGGUAUACCCAAGUCACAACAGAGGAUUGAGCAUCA", "bound/input enrichment [ratio]": 0.713}
{"data": "Series 3", "target": "Histone acetyltransferase KAT6A, winged helix 1, GST fusion (KAT6A, Homo sapiens, UniProt Q92794, residues 1-85)", "method": "protein binding microarray", "form": "double-stranded DNA, one strand shown", "sample": "in vitro", "tested at": "not given", "setting": "8-mer, flanks averaged, mean of 2 arrays, mostly near background", "relative to": "not given", "reading": "higher = stronger binding", "Construct (chain)": "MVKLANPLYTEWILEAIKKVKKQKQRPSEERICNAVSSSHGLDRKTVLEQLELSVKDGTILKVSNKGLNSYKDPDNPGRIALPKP"}
{"Sequence": "CGCGGATC", "E-score": 0.373}
{"Sequence": "GGTTATAA", "E-score": 0.0942}
{"Sequence": "AAACGATA", "E-score": -0.178}
{"Sequence": "ATTCGACC", "E-score": -0.136}
{"Sequence": "AACCCTAT", "E-score": -0.0938}
{"Sequence": "AATCGTTA", "E-score": -0.0862}
{"Sequence": "AGTCCAAT", "E-score": -0.138}
{"Sequence": "TCCGGTAA", "E-score": 0.123}
{"Sequence": "ACGGTGAG", "E-score": 0.161}
{"Sequence": "GGCGAGCA", "E-score": 0.077}
{"Sequence": "ACCAAATG", "E-score": -0.227}
{"Sequence": "ATTATCTA", "E-score": -0.0868}
{"Sequence": "CAGACGGG", "E-score": 0.084}
{"Sequence": "ATAGTTCG", "E-score": -0.124}
{"Sequence": "CCAGGCAC", "E-score": -0.209}
{"Sequence": "ACGTACGG", "E-score": 0.313}
{"Sequence": "ATCCTGCC", "E-score": -0.0163}
{"data": "Other studies, line by line"}
{"Substance": "PhoQ, residues 284 288 289 292 302 303 AQGLTV", "target": "PhoP, residues 12 14 15 18 19 LYFRQ (Escherichia coli, UniProt P23836)", "test": "Sort-seq, item: YFP reporter", "system": "E. coli", "conditions": "PhoQ-PhoP variant library, added: 10 µM Mg2+", "how to read": "relative to: high Mg2+ state, higher = stronger signaling", "endpoint": "fold induction", "value": 14.5}
{"note": "Excerpt of the above (series 1):"}
{"Substitution": "L38G", "binding fitness": "-1.47 natural log"}
{"Substitution": "A46R", "binding fitness": "-1.26 natural log"}
{"Substitution": "K34H", "binding fitness": "-1.03 natural log"}
{"Substitution": "K36N", "binding fitness": "-1.65 natural log"}
